Published values from different studies.
Numbered parts are unrelated; each lists some results of a single study. “And” joins repeats or separate records; there may be more than shown.
UniProt P41240, sequence (whole entry, looked up): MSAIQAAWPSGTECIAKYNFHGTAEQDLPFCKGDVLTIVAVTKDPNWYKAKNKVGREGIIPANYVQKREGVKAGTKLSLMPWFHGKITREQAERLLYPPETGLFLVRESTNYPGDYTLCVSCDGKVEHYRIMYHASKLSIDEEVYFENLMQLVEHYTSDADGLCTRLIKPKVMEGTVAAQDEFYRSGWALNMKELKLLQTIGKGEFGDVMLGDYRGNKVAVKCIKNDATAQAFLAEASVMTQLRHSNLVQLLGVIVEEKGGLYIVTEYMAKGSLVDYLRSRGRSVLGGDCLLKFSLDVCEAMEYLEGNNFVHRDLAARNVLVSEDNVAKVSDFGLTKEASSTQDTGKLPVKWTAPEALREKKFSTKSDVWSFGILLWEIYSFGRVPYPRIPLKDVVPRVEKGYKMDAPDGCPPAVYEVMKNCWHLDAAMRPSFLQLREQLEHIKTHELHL
UniProt P35590, sequence (whole entry, looked up): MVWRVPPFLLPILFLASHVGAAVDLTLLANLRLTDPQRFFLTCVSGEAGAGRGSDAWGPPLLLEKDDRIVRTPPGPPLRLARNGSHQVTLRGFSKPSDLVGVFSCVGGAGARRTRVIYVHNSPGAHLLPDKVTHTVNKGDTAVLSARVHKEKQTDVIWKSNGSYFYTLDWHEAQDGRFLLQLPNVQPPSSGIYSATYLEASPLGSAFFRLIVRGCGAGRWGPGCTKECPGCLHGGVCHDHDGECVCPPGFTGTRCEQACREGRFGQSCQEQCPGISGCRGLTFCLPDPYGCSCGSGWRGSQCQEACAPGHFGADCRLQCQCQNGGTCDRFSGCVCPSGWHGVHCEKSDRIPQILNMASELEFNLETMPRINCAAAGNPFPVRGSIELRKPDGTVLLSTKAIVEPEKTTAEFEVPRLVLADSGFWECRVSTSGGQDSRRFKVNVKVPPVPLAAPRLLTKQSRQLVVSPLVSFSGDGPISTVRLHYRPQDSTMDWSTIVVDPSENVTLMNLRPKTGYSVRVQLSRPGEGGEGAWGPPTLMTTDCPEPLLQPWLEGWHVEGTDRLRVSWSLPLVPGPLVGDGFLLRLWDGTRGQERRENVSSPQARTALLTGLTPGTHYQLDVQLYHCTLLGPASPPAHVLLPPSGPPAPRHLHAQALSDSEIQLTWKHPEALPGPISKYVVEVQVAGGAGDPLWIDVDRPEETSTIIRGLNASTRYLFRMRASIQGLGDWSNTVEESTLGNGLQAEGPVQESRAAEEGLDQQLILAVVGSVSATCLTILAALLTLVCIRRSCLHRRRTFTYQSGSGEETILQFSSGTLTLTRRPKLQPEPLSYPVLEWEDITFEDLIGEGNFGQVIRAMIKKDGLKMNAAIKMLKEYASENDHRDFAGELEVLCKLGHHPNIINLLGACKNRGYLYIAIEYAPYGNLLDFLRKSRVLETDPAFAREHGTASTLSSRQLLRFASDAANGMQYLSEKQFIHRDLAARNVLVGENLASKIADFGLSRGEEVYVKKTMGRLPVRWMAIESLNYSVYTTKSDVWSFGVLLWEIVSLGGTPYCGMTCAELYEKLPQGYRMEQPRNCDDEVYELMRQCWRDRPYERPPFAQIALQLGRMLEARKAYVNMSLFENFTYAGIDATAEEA

Set 1 — read-out: enzyme activity; action: inhibitor; tested at: 0.5 µM; reference: control
Target: Serine/threonine-protein kinase WNK2 (WNK2, Homo sapiens, UniProt Q9Y3S1)
UniProt Q9Y3S1, sequence (whole entry, looked up): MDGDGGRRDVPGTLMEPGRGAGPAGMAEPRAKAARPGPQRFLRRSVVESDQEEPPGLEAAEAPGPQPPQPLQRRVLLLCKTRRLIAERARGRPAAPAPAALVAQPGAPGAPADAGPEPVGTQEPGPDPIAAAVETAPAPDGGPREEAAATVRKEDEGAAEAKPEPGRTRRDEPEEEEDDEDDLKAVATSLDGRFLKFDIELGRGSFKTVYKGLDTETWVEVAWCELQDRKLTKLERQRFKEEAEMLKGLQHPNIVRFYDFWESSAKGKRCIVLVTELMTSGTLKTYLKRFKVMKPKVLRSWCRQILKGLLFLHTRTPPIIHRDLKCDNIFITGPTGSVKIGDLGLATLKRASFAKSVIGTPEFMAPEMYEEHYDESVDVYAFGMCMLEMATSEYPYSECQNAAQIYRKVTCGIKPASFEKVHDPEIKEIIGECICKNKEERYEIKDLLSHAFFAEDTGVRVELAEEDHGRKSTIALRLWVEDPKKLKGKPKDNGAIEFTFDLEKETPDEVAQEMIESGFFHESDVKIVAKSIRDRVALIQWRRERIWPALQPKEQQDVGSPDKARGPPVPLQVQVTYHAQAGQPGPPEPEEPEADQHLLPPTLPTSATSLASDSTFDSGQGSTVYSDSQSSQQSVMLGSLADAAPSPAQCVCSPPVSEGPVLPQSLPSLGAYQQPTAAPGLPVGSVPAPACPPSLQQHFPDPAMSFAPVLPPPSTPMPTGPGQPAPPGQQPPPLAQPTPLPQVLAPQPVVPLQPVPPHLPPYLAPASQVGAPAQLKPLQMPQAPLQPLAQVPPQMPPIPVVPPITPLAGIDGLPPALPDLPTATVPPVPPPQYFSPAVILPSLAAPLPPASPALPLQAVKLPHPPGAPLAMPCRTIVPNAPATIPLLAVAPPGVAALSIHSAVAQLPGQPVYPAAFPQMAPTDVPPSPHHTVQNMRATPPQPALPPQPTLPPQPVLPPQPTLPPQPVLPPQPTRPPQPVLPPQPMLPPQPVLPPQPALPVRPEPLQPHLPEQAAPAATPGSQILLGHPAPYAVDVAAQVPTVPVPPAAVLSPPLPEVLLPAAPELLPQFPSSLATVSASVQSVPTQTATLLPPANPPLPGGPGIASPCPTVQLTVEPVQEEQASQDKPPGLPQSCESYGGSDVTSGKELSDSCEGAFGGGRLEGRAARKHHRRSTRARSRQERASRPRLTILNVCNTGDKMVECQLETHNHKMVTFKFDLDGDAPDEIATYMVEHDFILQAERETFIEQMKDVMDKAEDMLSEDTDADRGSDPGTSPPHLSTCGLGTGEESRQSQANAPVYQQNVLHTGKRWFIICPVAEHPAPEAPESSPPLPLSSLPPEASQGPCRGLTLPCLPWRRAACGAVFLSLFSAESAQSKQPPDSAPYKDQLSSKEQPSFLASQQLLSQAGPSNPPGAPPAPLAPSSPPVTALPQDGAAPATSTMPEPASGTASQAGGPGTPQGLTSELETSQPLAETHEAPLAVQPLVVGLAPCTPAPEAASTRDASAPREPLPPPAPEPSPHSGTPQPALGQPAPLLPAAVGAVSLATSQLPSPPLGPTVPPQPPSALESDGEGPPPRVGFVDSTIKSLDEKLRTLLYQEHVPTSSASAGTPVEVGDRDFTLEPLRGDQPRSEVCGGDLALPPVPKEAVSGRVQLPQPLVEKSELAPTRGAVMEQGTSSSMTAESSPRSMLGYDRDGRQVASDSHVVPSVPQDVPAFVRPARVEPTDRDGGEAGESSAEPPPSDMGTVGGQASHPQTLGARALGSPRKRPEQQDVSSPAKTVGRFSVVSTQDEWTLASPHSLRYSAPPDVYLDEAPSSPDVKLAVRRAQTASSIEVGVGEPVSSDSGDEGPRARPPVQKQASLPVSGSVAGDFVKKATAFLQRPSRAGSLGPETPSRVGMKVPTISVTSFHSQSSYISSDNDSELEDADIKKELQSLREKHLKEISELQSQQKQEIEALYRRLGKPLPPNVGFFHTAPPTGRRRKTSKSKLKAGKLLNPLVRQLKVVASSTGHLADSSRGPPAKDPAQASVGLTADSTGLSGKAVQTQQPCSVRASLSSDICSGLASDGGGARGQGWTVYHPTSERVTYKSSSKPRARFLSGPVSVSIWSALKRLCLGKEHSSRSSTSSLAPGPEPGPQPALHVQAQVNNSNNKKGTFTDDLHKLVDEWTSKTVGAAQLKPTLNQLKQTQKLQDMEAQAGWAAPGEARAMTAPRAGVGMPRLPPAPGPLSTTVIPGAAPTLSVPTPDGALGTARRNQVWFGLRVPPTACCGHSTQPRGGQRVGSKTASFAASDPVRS
Structure (SMILES) | remaining activity
Cc1cccc(-c2[nH]c(C(C)(C)C)nc2-c2ccc3c(c2)OCO3)n1 | 105%
COc1cc2ncnc(Nc3ccc(F)c(Cl)c3)c2cc1OCCCN1CCOCC1 | 97.2%
O=C1NC(=O)C(c2cn(CCCn3ccnc3)c3ccccc23)=C1Nc1ccccc1 | 99.8%
Oc1ccc(-c2nc(-c3ccncc3)c(-c3ccc(F)cc3)[nH]2)cc1 | 102%
Cn1sc(=O)n(Cc2ccccc2)c1=O | 99.1%
OCC(O)CCON=C1C(c2c(O)[nH]c3ccccc23)=Nc2ccccc21 (stereo not drawn) | 85.4%
Nc1ncnc2n[nH]c(Nc3ccc(F)cc3)c12 | 110%
COc1ccc(CNC(=O)Nc2ncc([N+](=O)[O-])s2)cc1 | 104%
CNC(=O)c1cc(Oc2ccc(NC(=O)Nc3ccc(Cl)c(C(F)(F)F)c3)cc2)ccn1 | 101%
O=C1NC(=O)C(c2cn(CCCO)c3ncccc23)=C1c1cnccn1 | 104%
Nc1ccc2ncnc(NCCc3ccc(Oc4ccccc4)cc3)c2c1 | 96.7%
Cc1ccc(Nc2nccc(N(C)c3ccc4c(C)n(C)nc4c3)n2)cc1S(N)(=O)=O | 98.2%
CO[C@H]1C[C@@H]2CC[C@@H](C)[C@@](O)(O2)C(=O)C(=O)N2CCCC[C@H]2C(=O)O[C@H]([C@H](C)C[C@@H]2CC[C@@H](O)[C@H](OC)C2)CC(=O)[C@H](C)/C=C(\C)[C@@H](O)[C@@H](OC)C(=O)[C@H](C)C[C@H](C)/C=C/C=C/C=C/1C | 103%
CCOC(=O)c1c(C)[nH]c(/C=C2\C(=O)Nc3ccccc32)c1C | 100%
CN(C)c1ccc(C=C2C(=O)Nc3ccccc32)cc1 | 104%

Set 2 — read-out: cell-free assay; method: competition with immobilised ligand; tested at: 1 µM
Compound: O=C(Nc1cccnn1)N1CC(C/C=C/c2cncc(Oc3ccc(C(F)(F)F)cn3)n2)C1
target | remaining binding
MAP4K4 (Homo sapiens, UniProt O95819) | 100%
EGFR (Homo sapiens, UniProt P00533) | 99%
IRAK1 (Homo sapiens, UniProt P51617) | 66%
TIE1 (Homo sapiens, UniProt P35590) | 100%
CSK (Homo sapiens, UniProt P41240) | 100%
MAP3K10 (Homo sapiens, UniProt Q02779) | 100%

Set 3 — read-out: target engagement; method: BRET
Structure (SMILES): Cn1cnc(Cn2ccc3ccc(CNCc4[nH]c5ccccc5c4[C@H]4NC(=O)c5ccc(O)cc54)cc32)c1
Target: GTPase KRas (KRAS, Homo sapiens, UniProt P01116, G12C)
cells | time | IC50
HEK293 | 3 h | 710 nM
HEK293 | 0.5 h | 1200 nM
HEK293 | 2 h | 660 nM
HEK293 cells | – | 700 nM

Set 4 — cell line: mouse MPNST tumor cells; method: high-content nuclear imaging; measured: cell number; tested at: 10 µM; time: 12 h; notes: mean of 2 replicates; reference: plate mean; direction: higher = more cells
SMILES | nuclei count
CCn1cc(C(=O)O)c(=O)c2cnc(N3CCNCC3)nc21 | 0.843 z-score
Nc1ncc2c(n1)CC(c1ccco1)CC2=O (stereo not drawn) | 0.479 z-score
Cc1cc(-c2ccccc2)nnc1NCCN1CCOCC1 | 1.84 z-score
CC(S)C(=O)NCC(=O)O (stereo not drawn) | -0.942 z-score
CCCCNc1ccc(C(=O)OCCN(C)C)cc1 | 2.3 z-score
Cc1cc(C)c(/C=C2\C(=O)Nc3ccccc32)[nH]1 | -1.1 z-score
N#Cc1cccc(-c2c[nH]c3ncnc(N4CCOCC4)c23)c1 | 2.19 z-score
COc1cc(-c2cn(C)c(=O)c3cnccc23)c(OC)cc1CN(C)C | -2.77 z-score and -3.17 z-score
